Experimental data from different studies.
“And” joins repeats or separate records; there may be more than shown. ± gives the spread as reported.

`Oc1ccc(C2(c3ccc(O)cc3)c3ccccc3-c3ccccc32)cc1` — result for “late apoptotic cells”: 35.7 ± 0.7% (HepG2 spheroids; annexin V-FITC/PI flow cytometry; 1 µM, 96 h).
`O=C(O)C(F)(F)C(F)(F)C(F)(F)F` — result for “LDH activity in medium”: 5.27 mU/mL (hTERT-RPTEC-OAT1; LDH release; culture medium; concentration not given, 24 h, 96-well plate).
`CC[C@H](C)[C@H](NC(=O)[C@H](CCCNC(=N)N)NC(=O)[C@@H]1CCCN1C(=O)[C@H](CCCNC(=N)N)NC(=O)[C@@H](N)CCCNC(=N)N)C(=O)N[C@@H](Cc1c[nH]cn1)C(=O)N[C@@H](Cc1ccccc1)C(=O)N[C@@H](CCCNC(=N)N)C(=O)N[C@@H](Cc1ccccc1)C(=O)N1CCC[C@H]1C(=O)N[C@@H](CC(N)=O)C(=O)N[C@@H](CCCNC(=N)N)C(=O)N1CCC[C@H]1C(=O)N[C@@H](Cc1ccccc1)C(=O)N[C@H](C(=O)N1CCC[C@H]1C(=O)N[C@@H](CO)C(=O)N[C@@H](CCCNC(=N)N)C(=O)N[C@@H](CS)C(=O)N[C@@H](CC(N)=O)C(=O)N[C@@H](Cc1c[nH]cn1)C(=O)N[C@@H](CCCNC(=N)N)C(=O)N[C@@H](Cc1ccccc1)C(=O)N1CCC[C@H]1C(=O)N[C@@H](Cc1ccccc1)C(=O)N[C@@H](CCC(N)=O)C(=O)N1CCC[C@H]1C(=O)N[C@@H](Cc1ccccc1)C(=O)N[C@@H](Cc1ccc(O)cc1)C(=O)N[C@@H](Cc1c[nH]c2ccccc12)C(=O)N1CCC[C@H]1C(=O)N[C@@H](Cc1c[nH]cn1)C(=O)N[C@@H](CCCNC(=N)N)C(=O)N[C@@H](Cc1ccc(O)cc1)C(=O)N[C@@H](CC(C)C)C(=O)N[C@H](C(=O)N[C@@H](Cc1ccc(O)cc1)C(=O)N[C@@H](CCCNC(=N)N)C(=O)N[C@@H](Cc1ccc(O)cc1)C(=O)N[C@@H](Cc1ccccc1)C(=O)N1CCC[C@H]1C(=O)N[C@@H](CCCNC(=N)N)C(=O)N[C@@H](CCCNC(=N)N)C(=O)N[C@@H](CCCNC(=N)N)C(=O)N[C@@H](CC(C)C)C(=O)N[C@@H](CCC(N)=O)C(=O)N[C@@H](CCCNC(=N)N)C(=O)O)[C@@H](C)O)C(C)C` has a CC50 of 50.2 µM (HaCaT; cell viability, MTT).
For `COc1ccc2c(c1OC)C(=O)c1c(cc(C)c(O)c1OC)C2=O`, the cell viability was 77.5 ± 13.2% (HepaRG co-cultured with HK-2; MTT; 133.33 µM, 24 h; baseline: untreated control).
For `N.N.O=C([O-])C1(C(=O)[O-])CCC1.[Pt+2]`, the IC50 was 119 ± 5.93 µM (HaCaT; cell viability, MTT; 48 h).
For `CN[C@@H]1C[C@H]2O[C@@](C)([C@@H]1OC)n1c3ccccc3c3c4c(c5c6ccccc6n2c5c31)C(=O)NC4`, viability read “decreased” (MCF7; CellTiter-Glo; concentration not given, 24 and 48 h, positive control).
For `CCN(CC)CCCC[C@H](NC(=O)[C@H](CC(C)C)NC(=O)[C@H](C)NC(=O)[C@H](Cc1ccccc1)NC(=O)c1ccc(C(C)(C)C)cc1)C(=O)N[C@@H](CO)C(=O)OC`, cytotoxicity read “not toxic” (PC-3; CellTiter-Glo; up to 100 µM, 48 h).
The IC10 of `CC(C)c1c(C(=O)Nc2ccccc2)c(-c2ccccc2)c(-c2ccc(F)cc2)n1CC[C@@H](O)C[C@@H](O)CC(=O)O` is reported as 35.5 µM (MCF7 AREc32 cells; cell confluency, IncuCyte imaging; 24 h, nominal concentration).
With `CC(C)C[C@H](NC(=O)[C@@H](NC(=O)[C@H](CCCNC(=N)N)NC(=O)[C@H](CCCCN)NC(=O)[C@H](CCCCN)NC(=O)CNC(=O)CNC(=O)CNC(=O)c1ccc2c(c1)C(=O)OC21c2ccc(O)cc2Oc2cc(O)ccc21)[C@@H](C)O)C(=O)N[C@@H](CCCNC(=N)N)C(=O)N[C@@H](CCCCN)C(=O)N[C@@H](CC(N)=O)C(=O)N[C@@H](CC(=O)O)C(=O)N[C@@H](CCCNC(=N)N)C(=O)N[C@@H](CCCCN)C(=O)N[C@@H](CCCCN)C(=O)N[C@@H](CCCNC(=N)N)C(=O)N[C@@H](CS)C(N)=O` the transport ratio was 1.9% (hCMEC/D3 monolayers; BBB permeability, Transwell, measured: CF-labelled compound; EGM-2 medium; concentration not given, 1 h, apical to basal; baseline: fluorescence added apically).
The confluence of `CC1=C(O)C(=O)C=C2C1=CC=C1[C@@]2(C)CC[C@@]2(C)[C@@H]3C[C@](C)(C(=O)O)CC[C@]3(C)CC[C@]12C` is reported as 0.29 ± 0.16 (COS-7; 10 µM, 24 h, 0.1% DMSO, unit not given; baseline: vehicle control).
The efflux ratio of `CC(C)CC(=O)OC[C@H]1O[C@@](C#N)(c2ccc3c(N)ncnn23)[C@H](O)[C@@H]1O` is reported as 1.89 (Caco-2 monolayer; 90 µM, 2 h, with: zosuquidar 25 µM).
`CC(=O)OC[C@H]1O[C@@H](Oc2cc(O)cc3cc4oc(C)cc(=O)c4c(O)c23)[C@H](O)[C@@H](O)[C@@H]1O` has a cell viability of 105 ± 10.7% (HepaRG co-cultured with HK-2; MTT; 133.33 µM, 24 h; baseline: untreated control).
`C/C1=C/C(=O)O[C@@H]2C[C@@H](CC[C@H](C)/C=C\C=C\CC1)O[C@@](O)([C@@H]1CSC(=O)N1CO)C2`: “lowest cytotoxic concentration” greater than 1 µM (MCF7; MTT).
`Nc1ccn([C@H]2CC[C@@H](CO)O2)c(=O)n1`: “minimal cytotoxic concentration” greater than 250 µM (HEL; cell morphology).
The LDH release of `O=S(=O)(O)C(F)(F)C(F)(F)C(F)(F)C(F)(F)C(F)(F)C(F)(F)C(F)(F)C(F)(F)F` is reported as 64.9 mU/mL and 16.8 mU/mL and 11.7 mU/mL and 58.6 mU/mL (hTERT-RPTEC-OAT1; concentration not given, Transwell, basolateral-to-apical addition).
The hemolysis of `CC[C@H](C)[C@H](NC(=O)CN)C(=O)N[C@@H](C)C(=O)N[C@@H](CCCCN)C(=O)N[C@@H](Cc1ccccc1)C(=O)N[C@H](C(=O)N[C@@H](CCCCN)C(=O)N[C@@H](CCCCN)C(=O)N[C@H](C(=O)N[C@@H](C)C(=O)N[C@@H](CCCCN)C(=O)N[C@@H](C)C(=O)N[C@@H](CC(C)C)C(=O)N[C@@H](CCCNC(=N)N)C(N)=O)[C@@H](C)CC)[C@@H](C)CC` is reported as 20% (sheep red blood cells; 256 µM, 1 h, 37 °C; baseline: Triton X-100).
Under viability, `O=S(=O)(Nc1ccc(-c2n[nH]c(=S)o2)cc1)c1ccc(C(F)(F)F)cc1` is recorded as “not toxic” (HEK-293T; MTT; up to 100 µM).
For `CCCc1nc(N)[nH]c(=O)c1Br`, the CC50 was greater than 100 µM (CRFK; cytotoxicity, MTS).
For `O=C(O)C(F)(F)C(F)(F)C(F)(F)C(F)(F)C(F)(F)F`, the LDH release was 4.21 mU/mL and 4.49 mU/mL and 6.24 mU/mL and 3.6 mU/mL (hTERT-RPTEC-OAT1; concentration not given, 96-well plate).
With `O=c1ccc2ccccc2o1` the chance response was 0.02% (NHEK; cell count; concentration not given, 24 h, XBP1 panel).
`CN(N=O)[C@H]1CC[C@@H](c2ccc(Cl)c(Cl)c2)c2ccccc21` gave a relative survival of 26.6% (TK6 expressing CYP2B6; 0.08 µM, 4 h, without S9; baseline: vehicle).
For `CC(C)C[C@H](NC(=O)[C@@H](NC(=O)[C@H](CCCNC(=N)N)NC(=O)[C@H](CCC(N)=O)NC(=O)[C@H](Cc1ccccc1)NC(=O)[C@H](Cc1ccc(O)cc1)NC(=O)[C@H](CC(N)=O)NC(=O)[C@H](Cc1c[nH]c2ccccc12)NC(=O)[C@@H](NC(=O)[C@H](CCCNC(=N)N)NC(=O)[C@H](CCCCN)NC(=O)[C@@H](N)Cc1ccccc1)C(C)C)C(C)C)C(=O)N[C@H](C(=O)N[C@@H](CCCCN)C(=O)N[C@@H](CCCCN)C(=O)N[C@@H](Cc1ccc(O)cc1)C(=O)N[C@@H](C)C(N)=O)C(C)C`, the hemolysis was 49.9 ± 1.4% (rat erythrocytes; 200 µM, 60 min, 37 °C).
`O=S(=O)(c1ccc(O)cc1)c1ccc(O)cc1` — result for “early apoptotic cells”: 6.41 ± 5.28% (HepG2 spheroids, dissociated; annexin V-FITC/PI flow cytometry; 0.10 µM, 96 h).
`CC[C@H](C)[C@H](NC(=O)[C@H](C)NC(=O)[C@H](Cc1c[nH]cn1)NC(=O)CNC(=O)CNC(=O)CNC(=O)c1ccc2c(c1)C(=O)OC21c2ccc(O)cc2Oc2cc(O)ccc21)C(=O)N[C@@H](Cc1ccc(O)cc1)C(=O)N1CCC[C@H]1C(=O)N[C@@H](CCCNC(=N)N)C(=O)N[C@@H](Cc1c[nH]cn1)C(N)=O` gave a transport ratio of 8.5% (hCMEC/D3 monolayers; BBB permeability, Transwell, measured: CF-labelled compound; EGM-2 medium; concentration not given, 2 h, apical to basal; baseline: fluorescence added apically).
`Cc1cc2c(c(O)c1O)C(=O)c1c(O)cc(O)cc1C2=O` gave a cell viability of 90.1 ± 7.39% (HK-2 co-cultured with HepaRG; MTT; 16.67 µM, 24 h; baseline: untreated control).
The CC50 of `CC[C@H](C)[C@H](N)C(=O)N[C@@H](CCCNC(=N)N)C(=O)N[C@@H](CCCNC(=N)N)C(=O)N[C@@H](C)C(=O)N[C@H](C(=O)N[C@@H](CC(N)=O)C(=O)N[C@@H](CCCCN)C(=O)N[C@@H](Cc1ccc(O)cc1)C(=O)N1CCC[C@H]1C(=O)N1CCC[C@H]1C(=O)N[C@H](C(=O)N[C@@H](CC(N)=O)C(=O)N[C@@H](CC(C)C)C(=O)N[C@@H](CCCCN)C(=O)N[C@H](C(=O)N[C@@H](CCCCN)C(=O)N[C@@H](CS)C(=O)N[C@@H](CC(N)=O)C(=O)N[C@@H](CCCNC(=N)N)C(=O)N[C@@H](CC(C)C)C(=O)N[C@@H](CC(N)=O)C(=O)N[C@@H](CO)C(=O)N[C@H](C(=O)N[C@@H](CC(=O)O)C(=O)N1CCC[C@H]1C(=O)N[C@@H](CCCCN)C(=O)N[C@@H](CCC(N)=O)C(=O)N1CCC[C@H]1C(=O)N1CCC[C@H]1C(=O)N[C@@H](CCCNC(=N)N)C(=O)N1CCC[C@H]1C(=O)N[C@@H](Cc1ccccc1)C(=O)N[C@@H](CCCNC(=N)N)C(=O)N[C@@H](CO)C(=O)N[C@@H](Cc1ccccc1)C(=O)N[C@H](C(=O)N1CCC[C@H]1C(=O)NCC(=O)N1CCC[C@H]1C(=O)N[C@@H](CC(C)C)C(=O)N[C@@H](CCCCN)C(=O)N[C@@H](C)C(=O)N[C@H](C(=O)N[C@@H](CC(C)C)C(=O)N[C@@H](CCCCN)C(=O)O)[C@@H](C)O)C(C)C)[C@@H](C)CC)[C@@H](C)CC)[C@@H](C)CC)[C@@H](C)CC` is reported as 37.1 µM (HaCaT; cell viability, MTT).
`O=C1c2ccccc2C(=O)c2ccccc21` has a viability of 62.9 ± 1.81% (HK-2 co-cultured with HepaRG; MTT; 16.67 µM, 48 h; baseline: untreated control).
With `Nc1nc2nc[nH]c2c(=S)[nH]1` the LD50 was 25.8 µM (MRC-5, mock-infected; nuclei count; 96 h).

For quick reference, copied from above:
`CC[C@H](C)[C@H](NC(=O)[C@H](CCCNC(=N)N)NC(=O)[C@@H]1CCCN1C(=O)[C@H](CCCNC(=N)N)NC(=O)[C@@H](N)CCCNC(=N)N)C(=O)N[C@@H](Cc1c[nH]cn1)C(=O)N[C@@H](Cc1ccccc1)C(=O)N[C@@H](CCCNC(=N)N)C(=O)N[C@@H](Cc1ccccc1)C(=O)N1CCC[C@H]1C(=O)N[C@@H](CC(N)=O)C(=O)N[C@@H](CCCNC(=N)N)C(=O)N1CCC[C@H]1C(=O)N[C@@H](Cc1ccccc1)C(=O)N[C@H](C(=O)N1CCC[C@H]1C(=O)N[C@@H](CO)C(=O)N[C@@H](CCCNC(=N)N)C(=O)N[C@@H](CS)C(=O)N[C@@H](CC(N)=O)C(=O)N[C@@H](Cc1c[nH]cn1)C(=O)N[C@@H](CCCNC(=N)N)C(=O)N[C@@H](Cc1ccccc1)C(=O)N1CCC[C@H]1C(=O)N[C@@H](Cc1ccccc1)C(=O)N[C@@H](CCC(N)=O)C(=O)N1CCC[C@H]1C(=O)N[C@@H](Cc1ccccc1)C(=O)N[C@@H](Cc1ccc(O)cc1)C(=O)N[C@@H](Cc1c[nH]c2ccccc12)C(=O)N1CCC[C@H]1C(=O)N[C@@H](Cc1c[nH]cn1)C(=O)N[C@@H](CCCNC(=N)N)C(=O)N[C@@H](Cc1ccc(O)cc1)C(=O)N[C@@H](CC(C)C)C(=O)N[C@H](C(=O)N[C@@H](Cc1ccc(O)cc1)C(=O)N[C@@H](CCCNC(=N)N)C(=O)N[C@@H](Cc1ccc(O)cc1)C(=O)N[C@@H](Cc1ccccc1)C(=O)N1CCC[C@H]1C(=O)N[C@@H](CCCNC(=N)N)C(=O)N[C@@H](CCCNC(=N)N)C(=O)N[C@@H](CCCNC(=N)N)C(=O)N[C@@H](CC(C)C)C(=O)N[C@@H](CCC(N)=O)C(=O)N[C@@H](CCCNC(=N)N)C(=O)O)[C@@H](C)O)C(C)C` has a CC50 of 50.2 µM (HaCaT; cell viability, MTT).
For `COc1ccc2c(c1OC)C(=O)c1c(cc(C)c(O)c1OC)C2=O`, the cell viability was 77.5 ± 13.2% (HepaRG co-cultured with HK-2; MTT; 133.33 µM, 24 h; baseline: untreated control).
